Assay results collected from several papers.
Every numbered part comes from another study and shows a few of its results, in no order.
Sequence of UniProt O43353 (whole entry, looked up): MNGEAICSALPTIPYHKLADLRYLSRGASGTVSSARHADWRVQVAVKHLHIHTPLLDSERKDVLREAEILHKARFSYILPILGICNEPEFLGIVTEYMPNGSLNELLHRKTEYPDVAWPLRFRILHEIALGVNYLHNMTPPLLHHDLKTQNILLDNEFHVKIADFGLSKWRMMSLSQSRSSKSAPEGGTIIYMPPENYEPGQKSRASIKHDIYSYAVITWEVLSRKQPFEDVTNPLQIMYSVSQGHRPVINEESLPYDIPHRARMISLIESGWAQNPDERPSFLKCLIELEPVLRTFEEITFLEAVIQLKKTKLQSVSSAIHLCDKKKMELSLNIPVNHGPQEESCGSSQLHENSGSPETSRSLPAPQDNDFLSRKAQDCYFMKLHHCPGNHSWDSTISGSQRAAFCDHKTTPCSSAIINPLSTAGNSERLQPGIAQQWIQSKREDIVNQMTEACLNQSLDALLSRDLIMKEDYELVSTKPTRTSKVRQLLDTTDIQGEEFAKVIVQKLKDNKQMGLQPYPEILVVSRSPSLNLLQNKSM
Sequence of UniProt Q02763 (whole entry, looked up): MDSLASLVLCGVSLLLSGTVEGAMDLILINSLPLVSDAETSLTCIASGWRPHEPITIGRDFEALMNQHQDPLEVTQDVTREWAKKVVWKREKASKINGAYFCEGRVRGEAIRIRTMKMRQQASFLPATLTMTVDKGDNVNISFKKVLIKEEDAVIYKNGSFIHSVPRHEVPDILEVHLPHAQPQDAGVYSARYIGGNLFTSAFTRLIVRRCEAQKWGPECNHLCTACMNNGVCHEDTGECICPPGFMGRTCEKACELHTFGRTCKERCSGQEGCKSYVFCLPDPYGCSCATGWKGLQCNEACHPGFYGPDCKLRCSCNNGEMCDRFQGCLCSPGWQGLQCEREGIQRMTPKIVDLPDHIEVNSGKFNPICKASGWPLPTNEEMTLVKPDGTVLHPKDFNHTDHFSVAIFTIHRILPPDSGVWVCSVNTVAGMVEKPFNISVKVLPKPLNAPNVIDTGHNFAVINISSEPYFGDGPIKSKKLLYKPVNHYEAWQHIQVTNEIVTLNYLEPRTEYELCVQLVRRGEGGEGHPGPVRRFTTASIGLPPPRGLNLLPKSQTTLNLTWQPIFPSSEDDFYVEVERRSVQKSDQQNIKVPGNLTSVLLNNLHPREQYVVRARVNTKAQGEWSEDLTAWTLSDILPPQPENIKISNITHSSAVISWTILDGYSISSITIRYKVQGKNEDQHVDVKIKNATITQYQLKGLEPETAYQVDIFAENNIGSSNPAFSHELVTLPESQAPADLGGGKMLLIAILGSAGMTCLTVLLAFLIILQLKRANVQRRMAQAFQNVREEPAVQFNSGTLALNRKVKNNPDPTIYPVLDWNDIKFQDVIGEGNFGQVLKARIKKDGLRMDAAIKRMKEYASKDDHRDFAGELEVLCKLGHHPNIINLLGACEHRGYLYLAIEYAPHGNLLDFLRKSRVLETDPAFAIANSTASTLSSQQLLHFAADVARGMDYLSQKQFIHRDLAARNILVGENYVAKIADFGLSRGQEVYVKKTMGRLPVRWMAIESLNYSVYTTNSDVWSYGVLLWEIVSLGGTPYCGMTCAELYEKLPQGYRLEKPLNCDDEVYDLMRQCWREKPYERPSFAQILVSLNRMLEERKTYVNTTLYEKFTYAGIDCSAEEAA
Sequence of UniProt P36507 (whole entry, looked up): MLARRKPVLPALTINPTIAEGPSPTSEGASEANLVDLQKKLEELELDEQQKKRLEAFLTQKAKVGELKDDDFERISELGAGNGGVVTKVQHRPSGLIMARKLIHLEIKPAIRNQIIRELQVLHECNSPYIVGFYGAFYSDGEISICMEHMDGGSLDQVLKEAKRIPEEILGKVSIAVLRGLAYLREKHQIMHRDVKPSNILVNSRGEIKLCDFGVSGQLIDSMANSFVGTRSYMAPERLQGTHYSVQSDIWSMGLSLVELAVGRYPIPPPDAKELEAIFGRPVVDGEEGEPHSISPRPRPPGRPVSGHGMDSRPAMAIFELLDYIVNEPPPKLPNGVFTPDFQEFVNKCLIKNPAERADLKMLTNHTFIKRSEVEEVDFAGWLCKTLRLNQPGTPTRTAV
Sequence of UniProt Q9UL54 (whole entry, looked up): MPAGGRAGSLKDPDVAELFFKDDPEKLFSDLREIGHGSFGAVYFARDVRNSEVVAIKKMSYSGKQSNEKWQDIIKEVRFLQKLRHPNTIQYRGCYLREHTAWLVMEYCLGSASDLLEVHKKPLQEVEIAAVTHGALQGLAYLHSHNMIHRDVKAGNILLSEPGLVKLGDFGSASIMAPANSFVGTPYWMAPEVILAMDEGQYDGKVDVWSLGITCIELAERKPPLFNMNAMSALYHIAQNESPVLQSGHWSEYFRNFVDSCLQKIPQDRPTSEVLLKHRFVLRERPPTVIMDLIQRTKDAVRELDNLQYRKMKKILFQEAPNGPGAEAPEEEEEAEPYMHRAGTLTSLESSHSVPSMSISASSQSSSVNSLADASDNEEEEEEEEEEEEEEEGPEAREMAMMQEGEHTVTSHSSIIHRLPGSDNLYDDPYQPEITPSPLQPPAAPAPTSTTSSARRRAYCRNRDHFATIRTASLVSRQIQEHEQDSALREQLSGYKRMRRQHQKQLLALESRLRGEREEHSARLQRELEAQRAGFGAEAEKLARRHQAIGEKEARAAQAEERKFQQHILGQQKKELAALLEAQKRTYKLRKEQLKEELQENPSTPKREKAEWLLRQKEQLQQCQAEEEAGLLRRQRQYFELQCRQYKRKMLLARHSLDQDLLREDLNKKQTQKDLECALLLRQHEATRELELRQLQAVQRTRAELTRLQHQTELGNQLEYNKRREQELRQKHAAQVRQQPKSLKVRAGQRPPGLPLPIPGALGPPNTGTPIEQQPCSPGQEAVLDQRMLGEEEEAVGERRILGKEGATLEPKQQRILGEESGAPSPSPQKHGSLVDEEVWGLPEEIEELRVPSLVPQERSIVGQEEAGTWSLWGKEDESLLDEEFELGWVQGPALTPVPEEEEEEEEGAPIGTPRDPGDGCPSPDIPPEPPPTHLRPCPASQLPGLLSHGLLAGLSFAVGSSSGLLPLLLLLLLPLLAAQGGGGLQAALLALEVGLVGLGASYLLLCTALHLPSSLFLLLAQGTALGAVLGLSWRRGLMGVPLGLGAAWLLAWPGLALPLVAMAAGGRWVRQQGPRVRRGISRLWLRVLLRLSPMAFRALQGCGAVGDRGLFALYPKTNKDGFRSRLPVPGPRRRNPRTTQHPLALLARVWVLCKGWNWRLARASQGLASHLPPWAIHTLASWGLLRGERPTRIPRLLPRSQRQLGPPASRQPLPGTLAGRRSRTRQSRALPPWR
Sequence of UniProt Q15349 (whole entry, looked up): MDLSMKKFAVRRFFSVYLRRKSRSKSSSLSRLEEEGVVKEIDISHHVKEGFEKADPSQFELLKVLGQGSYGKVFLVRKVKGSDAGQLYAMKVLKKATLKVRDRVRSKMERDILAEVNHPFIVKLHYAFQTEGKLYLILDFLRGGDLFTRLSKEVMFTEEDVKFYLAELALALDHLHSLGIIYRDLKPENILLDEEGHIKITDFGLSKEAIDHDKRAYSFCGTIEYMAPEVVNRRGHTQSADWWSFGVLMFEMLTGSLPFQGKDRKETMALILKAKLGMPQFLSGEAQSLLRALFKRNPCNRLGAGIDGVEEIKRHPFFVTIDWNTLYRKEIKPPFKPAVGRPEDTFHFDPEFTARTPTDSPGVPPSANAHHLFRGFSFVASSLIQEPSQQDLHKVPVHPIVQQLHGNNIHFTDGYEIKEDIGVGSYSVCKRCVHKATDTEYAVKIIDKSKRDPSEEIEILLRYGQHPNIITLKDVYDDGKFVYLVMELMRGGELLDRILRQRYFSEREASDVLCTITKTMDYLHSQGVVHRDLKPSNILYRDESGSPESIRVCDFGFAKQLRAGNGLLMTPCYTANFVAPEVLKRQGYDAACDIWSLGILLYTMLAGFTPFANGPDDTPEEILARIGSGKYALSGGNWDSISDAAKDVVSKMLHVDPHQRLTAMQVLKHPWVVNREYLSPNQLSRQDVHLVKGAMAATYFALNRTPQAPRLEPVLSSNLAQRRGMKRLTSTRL
Sequence of UniProt P29320 (whole entry, looked up): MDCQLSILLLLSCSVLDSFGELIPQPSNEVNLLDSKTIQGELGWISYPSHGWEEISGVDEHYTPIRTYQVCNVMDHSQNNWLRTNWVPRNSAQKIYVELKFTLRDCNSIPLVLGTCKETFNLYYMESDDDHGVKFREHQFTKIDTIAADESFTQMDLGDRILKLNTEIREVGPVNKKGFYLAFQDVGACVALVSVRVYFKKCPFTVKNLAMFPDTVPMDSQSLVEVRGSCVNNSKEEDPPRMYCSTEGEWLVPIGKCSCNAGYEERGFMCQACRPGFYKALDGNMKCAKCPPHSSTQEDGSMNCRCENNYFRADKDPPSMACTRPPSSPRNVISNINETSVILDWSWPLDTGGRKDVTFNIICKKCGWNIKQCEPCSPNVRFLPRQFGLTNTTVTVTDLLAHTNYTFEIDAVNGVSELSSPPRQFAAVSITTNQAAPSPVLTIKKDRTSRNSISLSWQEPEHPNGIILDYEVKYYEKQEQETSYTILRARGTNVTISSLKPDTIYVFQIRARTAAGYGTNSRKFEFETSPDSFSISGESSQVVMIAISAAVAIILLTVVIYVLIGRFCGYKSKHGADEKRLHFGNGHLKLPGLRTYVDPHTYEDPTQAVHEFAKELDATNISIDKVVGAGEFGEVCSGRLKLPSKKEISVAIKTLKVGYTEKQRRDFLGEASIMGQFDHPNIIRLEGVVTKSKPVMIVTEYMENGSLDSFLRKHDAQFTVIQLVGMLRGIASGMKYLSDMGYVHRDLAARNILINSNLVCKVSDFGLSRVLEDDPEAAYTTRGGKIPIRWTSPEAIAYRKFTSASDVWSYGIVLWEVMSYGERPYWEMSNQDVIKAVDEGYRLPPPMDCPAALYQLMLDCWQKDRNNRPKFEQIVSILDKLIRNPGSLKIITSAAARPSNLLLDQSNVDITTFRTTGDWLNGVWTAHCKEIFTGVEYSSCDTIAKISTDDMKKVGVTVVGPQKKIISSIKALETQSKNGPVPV

Series 1 — SMILES: NC(N)=NC(=O)c1nc(Cl)c(N2CCCCCC2)nc1N; effect on: β-arrestin recruitment; mode: agonist; method: PRESTO-Tango; tested at: 10 µM; baseline: untreated
| target | fold over basal |
| --- | --- |
| ADRA2B (Homo sapiens, UniProt P18089) | 1.23 |
| TAAR5 (Homo sapiens, UniProt O14804) | 1 fold |
| HTR6 (Homo sapiens, UniProt P50406) | 0.68 |

Series 2 — effect on: enzyme activity; mode: inhibitor; tested at: 0.5 µM; baseline: control
Compound: Cc1ccc(NC(=O)c2ccc(CN3CCN(C)CC3)cc2)cc1Nc1nccc(-c2cccnc2)n1
| target | remaining activity [%] |
| --- | --- |
| JAK3 (Homo sapiens, UniProt P52333) | 98 |
| CSNK1G2 (Homo sapiens, UniProt P78368) | 96.6 |
| RPS6KA2 (Homo sapiens, UniProt Q15349) | 98 |
| FRK (Homo sapiens, UniProt P42685) | 93.8 |
| EPHA3 (Homo sapiens, UniProt P29320) | 99.5 |
| MAP2K2 (Homo sapiens, UniProt P36507) | 96.6 |
| ACVR1B (Homo sapiens, UniProt P36896) | 104 |
| NEK1 (Homo sapiens, UniProt Q96PY6) | 125 |
| WEE1 (Homo sapiens, UniProt P30291) | 101 |
| ARAF (Homo sapiens, UniProt P10398) | 95 |
| TEK (Homo sapiens, UniProt Q02763) | 98.4 |
| FGFR1 (Homo sapiens, UniProt P11362) | 103 |
| NEK6 (Homo sapiens, UniProt Q9HC98) | 97.9 |

Series 3 — host: mouse; matrix: microsomes or S9; tested at: 2 µM; time: 0.5 h
| SMILES | remaining compound |
| --- | --- |
| CC1(C)C(=O)Nc2ccc(S(=O)(=O)Nc3noc(-c4ccsc4)n3)cc21 | > 100% |
| O=C(O)C1C(c2ccccc2)C(C(=O)O)C1c1ccccc1 (stereo not drawn) | 65.9% |
| Cc1cnc(C(=O)N(CCC(=O)NC(C)C)CC2CCCO2)cn1 (stereo not drawn) | 56.6% |
| CCN(CC(=O)NC)C(=O)c1cc(C)c(C)c(S(=O)(=O)NC)c1 | 85% |
| CCOC(=O)c1c2ccccc2n2/c(=C\c3ccccc3C)c3ccccc3c12 | 56.7% |
| CCCN1CCc2[nH]cnc2C12CCN(C(=O)[C@@H]1C[C@@H](O)CN1)CC2 | 87% |
| CC(C)CCNC(=O)c1c(OCC2CC2)cc(=O)n2c1CCOCC2 | 34.2% |
| Cc1cnc(C(=O)Nc2cc(Cl)c(Cl)c(Cl)c2)cn1 | 4.51% |
| COc1ccc(N(C)c2cc3n(c(=O)n2)CCc2cc(OC)c(OC)cc2-3)cc1 | 70.2% |

Series 4 — effect on: cell-free assay; method: competition with immobilised ligand; tested at: 0.1 µM
SMILES: CC(C)CC(=O)N1CCc2nc(-c3ccc(Br)cc3)nc(N(C)Cc3ccccc3)c2C1
| target | remaining binding [%] |
| --- | --- |
| CDK4 (Homo sapiens, UniProt P11802) | 93 |
| WEE2 (Homo sapiens, UniProt P0C1S8) | 100 |
| MTOR (Homo sapiens, UniProt P42345) | 89 |
| TAOK2 (Homo sapiens, UniProt Q9UL54) | 97 |
| RIPK2 (Homo sapiens, UniProt O43353) | 100 |

Some of these lines once more (series 2):
| target | remaining activity [%] |
| --- | --- |
| WEE1 (Homo sapiens, UniProt P30291) | 101 |
| FRK (Homo sapiens, UniProt P42685) | 93.8 |
